Published values collected from several papers.
Each line is one published result; not all experiments were run side by side. “And” joins repeats or separate records; there may be more than shown. ± gives the spread as reported.
CA1: Carbonic anhydrase 1 (CA1, Homo sapiens, UniProt P00915)
Sequence of UniProt P00915 (whole entry, looked up): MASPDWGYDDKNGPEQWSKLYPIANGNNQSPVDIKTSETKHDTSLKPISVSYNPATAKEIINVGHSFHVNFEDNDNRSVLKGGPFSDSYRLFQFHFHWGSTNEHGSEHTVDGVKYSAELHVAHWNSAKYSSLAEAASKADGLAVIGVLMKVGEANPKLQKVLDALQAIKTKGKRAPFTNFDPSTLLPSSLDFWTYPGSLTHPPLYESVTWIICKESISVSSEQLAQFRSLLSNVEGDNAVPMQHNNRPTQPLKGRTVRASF
Mapk1: Mitogen-activated protein kinase 1 (Mapk1, Rattus norvegicus, UniProt P63086)
Sequence of UniProt P63086 (whole entry, looked up): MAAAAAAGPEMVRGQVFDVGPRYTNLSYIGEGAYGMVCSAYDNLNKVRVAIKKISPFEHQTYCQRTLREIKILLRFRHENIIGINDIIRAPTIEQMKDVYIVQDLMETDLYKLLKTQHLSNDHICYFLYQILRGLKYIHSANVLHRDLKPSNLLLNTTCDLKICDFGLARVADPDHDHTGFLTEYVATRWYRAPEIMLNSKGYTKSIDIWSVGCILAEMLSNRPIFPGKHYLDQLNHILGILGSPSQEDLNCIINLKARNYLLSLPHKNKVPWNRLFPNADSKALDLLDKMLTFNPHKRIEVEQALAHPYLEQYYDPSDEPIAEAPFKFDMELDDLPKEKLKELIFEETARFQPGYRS
Sequence of UniProt P29322 (whole entry, looked up): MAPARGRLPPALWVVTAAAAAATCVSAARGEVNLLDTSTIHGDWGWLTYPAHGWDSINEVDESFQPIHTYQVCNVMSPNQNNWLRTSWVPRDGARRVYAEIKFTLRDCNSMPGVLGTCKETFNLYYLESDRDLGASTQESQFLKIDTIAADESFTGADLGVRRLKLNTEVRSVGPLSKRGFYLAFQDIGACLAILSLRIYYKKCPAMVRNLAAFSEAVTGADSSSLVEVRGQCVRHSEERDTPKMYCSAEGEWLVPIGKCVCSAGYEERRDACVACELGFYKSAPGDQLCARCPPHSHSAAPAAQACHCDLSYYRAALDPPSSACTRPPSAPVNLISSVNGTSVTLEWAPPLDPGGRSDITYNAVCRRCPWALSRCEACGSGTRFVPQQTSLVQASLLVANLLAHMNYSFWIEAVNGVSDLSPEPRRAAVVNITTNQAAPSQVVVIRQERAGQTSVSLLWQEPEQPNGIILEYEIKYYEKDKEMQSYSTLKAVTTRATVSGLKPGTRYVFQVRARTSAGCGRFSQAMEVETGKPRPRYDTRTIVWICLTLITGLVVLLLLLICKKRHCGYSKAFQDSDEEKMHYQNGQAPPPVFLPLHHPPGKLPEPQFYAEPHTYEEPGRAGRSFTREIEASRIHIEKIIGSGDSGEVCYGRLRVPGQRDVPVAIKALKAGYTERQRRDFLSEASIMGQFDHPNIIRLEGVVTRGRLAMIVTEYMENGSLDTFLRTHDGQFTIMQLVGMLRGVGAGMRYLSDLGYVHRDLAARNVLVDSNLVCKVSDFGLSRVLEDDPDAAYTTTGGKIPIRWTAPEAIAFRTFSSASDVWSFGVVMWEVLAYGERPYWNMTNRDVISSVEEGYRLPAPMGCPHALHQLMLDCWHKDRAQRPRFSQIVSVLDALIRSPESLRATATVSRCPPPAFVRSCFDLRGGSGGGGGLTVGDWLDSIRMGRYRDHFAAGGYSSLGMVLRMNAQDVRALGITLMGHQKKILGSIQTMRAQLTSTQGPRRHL
Sequence of UniProt P49760 (whole entry, looked up): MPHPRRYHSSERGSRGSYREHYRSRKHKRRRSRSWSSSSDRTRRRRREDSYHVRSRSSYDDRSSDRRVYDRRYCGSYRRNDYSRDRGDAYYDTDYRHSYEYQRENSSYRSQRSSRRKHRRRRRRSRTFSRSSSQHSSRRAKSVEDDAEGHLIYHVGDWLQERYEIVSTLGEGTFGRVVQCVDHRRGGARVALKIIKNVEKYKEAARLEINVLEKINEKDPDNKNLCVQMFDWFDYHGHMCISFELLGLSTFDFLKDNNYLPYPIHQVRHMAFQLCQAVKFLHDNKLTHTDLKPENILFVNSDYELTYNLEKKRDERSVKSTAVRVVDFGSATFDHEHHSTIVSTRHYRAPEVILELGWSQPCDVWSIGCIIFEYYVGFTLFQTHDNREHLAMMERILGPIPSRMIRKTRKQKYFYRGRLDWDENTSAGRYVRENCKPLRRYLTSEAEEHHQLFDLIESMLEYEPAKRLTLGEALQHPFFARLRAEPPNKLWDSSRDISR
Sequence of UniProt P35462 (whole entry, looked up): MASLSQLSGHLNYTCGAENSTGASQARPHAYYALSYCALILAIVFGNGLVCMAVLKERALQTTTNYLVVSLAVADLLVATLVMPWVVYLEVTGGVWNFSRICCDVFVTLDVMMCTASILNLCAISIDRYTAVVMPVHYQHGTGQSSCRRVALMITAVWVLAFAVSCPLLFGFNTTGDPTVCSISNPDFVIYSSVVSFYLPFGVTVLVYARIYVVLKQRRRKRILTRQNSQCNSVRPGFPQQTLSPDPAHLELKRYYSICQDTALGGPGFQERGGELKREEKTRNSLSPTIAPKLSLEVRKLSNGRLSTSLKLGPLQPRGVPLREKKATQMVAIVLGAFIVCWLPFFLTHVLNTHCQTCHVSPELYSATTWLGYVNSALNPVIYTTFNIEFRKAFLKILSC
Sequence of UniProt Q53GL7 (whole entry, looked up): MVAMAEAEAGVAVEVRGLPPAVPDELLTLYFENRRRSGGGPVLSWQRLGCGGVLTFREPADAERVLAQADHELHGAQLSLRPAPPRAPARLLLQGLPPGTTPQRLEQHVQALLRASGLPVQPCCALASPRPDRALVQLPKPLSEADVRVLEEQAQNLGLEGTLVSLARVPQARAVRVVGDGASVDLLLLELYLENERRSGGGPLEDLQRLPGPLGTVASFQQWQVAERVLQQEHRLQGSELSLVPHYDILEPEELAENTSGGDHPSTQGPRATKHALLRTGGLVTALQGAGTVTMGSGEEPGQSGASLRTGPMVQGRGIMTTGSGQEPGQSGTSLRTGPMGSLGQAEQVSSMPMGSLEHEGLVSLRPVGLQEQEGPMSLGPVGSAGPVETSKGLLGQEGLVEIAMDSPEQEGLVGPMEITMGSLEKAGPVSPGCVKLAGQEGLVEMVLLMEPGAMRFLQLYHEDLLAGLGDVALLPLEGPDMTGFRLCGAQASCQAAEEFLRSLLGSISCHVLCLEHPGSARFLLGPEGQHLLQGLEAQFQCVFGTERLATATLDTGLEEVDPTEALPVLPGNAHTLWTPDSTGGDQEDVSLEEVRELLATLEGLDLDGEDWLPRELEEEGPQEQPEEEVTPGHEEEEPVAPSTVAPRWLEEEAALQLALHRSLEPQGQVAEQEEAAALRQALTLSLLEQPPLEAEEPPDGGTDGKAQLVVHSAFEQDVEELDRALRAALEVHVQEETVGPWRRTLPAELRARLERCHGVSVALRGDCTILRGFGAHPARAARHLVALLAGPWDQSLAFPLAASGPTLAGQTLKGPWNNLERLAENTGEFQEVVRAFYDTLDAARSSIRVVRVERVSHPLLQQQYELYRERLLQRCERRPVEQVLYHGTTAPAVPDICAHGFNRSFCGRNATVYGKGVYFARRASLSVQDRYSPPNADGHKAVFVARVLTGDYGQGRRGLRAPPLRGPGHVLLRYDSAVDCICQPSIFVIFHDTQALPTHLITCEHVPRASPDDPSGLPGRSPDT
Sequence of UniProt Q9UKE5 (whole entry, looked up): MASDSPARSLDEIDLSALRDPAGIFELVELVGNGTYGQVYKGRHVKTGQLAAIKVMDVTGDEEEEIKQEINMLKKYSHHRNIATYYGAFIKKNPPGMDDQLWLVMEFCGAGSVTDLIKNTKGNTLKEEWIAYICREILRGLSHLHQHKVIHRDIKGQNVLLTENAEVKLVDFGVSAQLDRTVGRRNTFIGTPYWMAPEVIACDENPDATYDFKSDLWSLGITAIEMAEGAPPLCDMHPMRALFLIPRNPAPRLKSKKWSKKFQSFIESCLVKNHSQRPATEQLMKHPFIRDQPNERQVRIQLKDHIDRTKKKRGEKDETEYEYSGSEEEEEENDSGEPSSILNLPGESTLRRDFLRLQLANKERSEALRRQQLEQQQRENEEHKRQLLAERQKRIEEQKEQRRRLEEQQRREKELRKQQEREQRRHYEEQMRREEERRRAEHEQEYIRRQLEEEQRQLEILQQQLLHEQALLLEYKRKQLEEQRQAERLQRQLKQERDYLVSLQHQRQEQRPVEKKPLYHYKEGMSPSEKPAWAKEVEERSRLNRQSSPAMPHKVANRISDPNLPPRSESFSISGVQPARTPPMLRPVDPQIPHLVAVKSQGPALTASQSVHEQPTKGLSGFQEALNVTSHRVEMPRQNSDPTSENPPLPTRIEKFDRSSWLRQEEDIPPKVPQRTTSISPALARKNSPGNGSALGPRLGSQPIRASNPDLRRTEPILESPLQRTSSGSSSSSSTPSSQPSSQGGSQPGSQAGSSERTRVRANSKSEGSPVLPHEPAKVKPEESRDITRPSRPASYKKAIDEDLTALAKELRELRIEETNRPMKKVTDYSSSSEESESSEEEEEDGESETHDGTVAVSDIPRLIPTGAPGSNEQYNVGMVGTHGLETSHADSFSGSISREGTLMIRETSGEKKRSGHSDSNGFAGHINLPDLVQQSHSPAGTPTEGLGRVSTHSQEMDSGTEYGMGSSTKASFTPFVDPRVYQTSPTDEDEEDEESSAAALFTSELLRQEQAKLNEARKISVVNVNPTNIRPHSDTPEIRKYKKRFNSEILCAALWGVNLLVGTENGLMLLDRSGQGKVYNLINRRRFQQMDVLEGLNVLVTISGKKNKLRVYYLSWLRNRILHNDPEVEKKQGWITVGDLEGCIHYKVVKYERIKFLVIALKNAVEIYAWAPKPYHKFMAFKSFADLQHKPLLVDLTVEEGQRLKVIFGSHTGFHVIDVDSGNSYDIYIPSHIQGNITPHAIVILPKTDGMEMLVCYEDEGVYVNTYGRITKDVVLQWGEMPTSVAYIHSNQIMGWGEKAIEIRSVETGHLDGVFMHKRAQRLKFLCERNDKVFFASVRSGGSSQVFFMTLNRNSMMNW

SMILES = O=C1NC2(CC2)COc2ncc(F)cc2[C@H]2COCCN2c2ccn3ncc1c3n2; system = Sprague-Dawley rat, male, serum; conditions = oral, 10 mg/kg/day, end of treatment, 4-week subacute toxicity; quantity = serum hepatic lipase activity; value = 3.2 ± 0.8 U/L
SMILES = O=C(O[C@@H]1Cc2c(O)cc(O)cc2O[C@@H]1c1cc(O)c(O)c(O)c1)c1cc(O)c(O)c(O)c1; target or system = Fructose-bisphosphate aldolase (Candida albicans, UniProt Q9URB4); assay = enzyme activity, inhibitor, absorbance; quantity = IC50; value = 561 nM
SMILES = CS(C)(=O)=Nc1ccc(-c2ccc(-c3nc4cc(O[C@@H]5CO[C@H]6[C@@H]5OC[C@H]6O)[nH]c4cc3F)cc2)cc1; target or system = Ephrin type-A receptor 8 (EPHA8, Homo sapiens, UniProt P29322); assay = enzyme activity, inhibitor; conditions = 10 µM; quantity = inhibition; value = 2%
SMILES = CC(C)(C)C(=O)OCOP(=O)(OCOC(=O)C(C)(C)C)C1CCCN(O)C1=O (stereo not drawn); target or system = SF-295; quantity = TGI; value = > 100000 nM
SMILES = Cc1cc(Oc2nc(N3CC[C@@H](c4ccncc4)C3)ncc2F)[nH]n1; target or system = Mycobacterium tuberculosis; assay = OD; system = H37Rv PurF CRISPRi knockdown; conditions = 0.000488 µM, together with: anhydrotetracycline low; quantity = normalised growth; value = 66% and 69%
SMILES = CNC(=O)c1cc(Sc2ccc(OC)cc2)nc2ccccc12; target or system = Calmodulin-domain protein kinase 1, phosphorylated (CDPK1, Toxoplasma gondii, UniProt Q9BJF5); assay = enzyme activity, inhibitor, ELISA; quantity = IC50; value = 1200 nM
SMILES = CC(=O)C1CCC2(C)C(CCC3C4CCC(O)C4(C)CCC32)C1 (stereo not drawn); target or system = Androgen receptor (AR, Homo sapiens, UniProt P10275); assay = nuclear translocation, antagonist; quantity = IC50; value = 600 nM
SMILES = C=C1NC(=O)[C@H](CCSC)NC(=O)[C@H](Cc2ccc(O)cc2)NC(=O)[C@H](CC(N)=O)NC(=O)CNC(=O)CNC(=O)[C@H](CC(N)=O)NC(=O)[C@H](Cc2c[nH]cn2)NC(=O)[C@H](CCC(=O)O)NC(=O)[C@H](Cc2ccc(O)cc2)NC(=O)[C@H](CO)NC(=O)[C@H](Cc2c[nH]c3ccccc23)NC(=O)[C@H](Cc2c[nH]c3ccccc23)NC(=O)c2ccc(-c3nc(C(=O)OC)cs3)nc2-c2csc1n2; target or system = TRAF2 and NCK-interacting protein kinase (TNIK, Homo sapiens, UniProt Q9UKE5); assay = enzyme activity, inhibitor, ADP detection; quantity = IC50; value = 2500 nM
SMILES = CC(C)C[C@H](NC(=O)[C@H](CC(=O)O)NC(=O)[C@@H](N)Cc1ccc(O)cc1)C(=O)N1CCC[C@H]1C(=O)N[C@@H](Cc1ccccc1)C(=O)N[C@H](CCC(=O)O)C(=O)N[C@@H](Cc1ccccc1)C(N)=O; target or system = Transcriptional regulator PlcR (Bacillus thuringiensis, UniProt A0ACM8Q0N2); assay = reporter gene, inhibitor, lacZ reporter; system = 407 Cry−; conditions = 1 h, phase, late exponential, added at; quantity = IC50; value = 588 ± 77 nM
SMILES = COc1ccccc1-c1n[nH]c2nc(NC3CCN(C(=O)Cc4ccc(F)cc4F)CC3)ncc12; assay = bead binding, competition bead pull-down, item: LINJ.35.0070; system = Leishmania donovani axenic amastigote extract; conditions = 10 µM; how to read = baseline: vehicle; quantity = relative abundance; value = 0.77
SMILES = CN(C)[C@H]1C[C@@]23CC[C@@]4(O2)C(=CC[C@]2(C)[C@@H](c5ccc6ccncc6c5)CC[C@H]24)C=C3[C@@H](O)[C@@H]1O; target or system = Dual specificity protein kinase CLK2 (CLK2, Homo sapiens, UniProt P49760); assay = ATP probe labelling, inhibitor, KiNativ profiling; conditions = 0.1 µM; quantity = inhibition; value = -2.9%
SMILES = COC1c2cc(C(C)C)c(O)c(O)c2C23CCCC(C)(C)C2C1OC3=O (stereo not drawn); target or system = CA1; assay = enzyme activity, inhibitor; quantity = IC50; value = 4.81 nM
SMILES = Cc1[nH]c(C)c(S(=O)(=O)NC2CCCCC2)c1C(=O)N1CCCC1; target or system = D(3) dopamine receptor (DRD3, Homo sapiens, UniProt P35462); assay = β-arrestin recruitment, antagonist, PathHunter; conditions = together with: dopamine EC80; quantity = IC50; value = > 100000 nM
SMILES = C[C@H](Oc1ccc(C(=O)c2ccc(F)cc2)cc1)C(=O)N1CCc2ccc(C(F)(F)F)cc21; target or system = Dihydroorotate dehydrogenase (quinone), mitochondrial (PFF0160c, Plasmodium falciparum, UniProt Q08210, E182D); assay = enzyme activity, inhibitor, absorbance; quantity = IC50; value = 463 nM
SMILES = CC(C)C[C@H](NC(=O)[C@H](CC(=O)O)NC(=O)[C@H](CCCNC(=N)N)NC(=O)[C@@H]1CCCN1C(=O)[C@H](CCCCN)NC(=O)[C@H](CCCNC(=N)N)NC(=O)CNC(=O)[C@H](CCCCN)NC(=O)[C@H](C)NC(=O)[C@@H](N)Cc1ccc(O)cc1)C(=O)N[C@@H](CCC(=O)O)C(=O)N[C@@H](CC(C)C)C(=O)N1CCC[C@H]1C(=O)N[C@@H](CC(C)C)C(=O)N[C@@H](CO)C(=O)N1CCC[C@H]1C(=O)O; target or system = Mapk1; assay = enzyme activity, inhibitor, fluorescence; conditions = pH 7.4; quantity = IC50; value = 52900 nM
SMILES = O=[N+]([O-])c1ccc(S(=O)(=O)Oc2ccc(/C=N/NS(=O)(=O)c3cc(Cl)ccc3Cl)cc2)cc1; target or system = CA1; assay = enzyme activity, inhibitor, absorbance; quantity = IC50; value = 14.5 nM
SMILES = CC(C)[C@H](NC(=O)[C@H](CCCCN)NC(=O)[C@@H](NC(=O)[C@H](Cc1ccc(O)cc1)NC(=O)[C@H](CC(N)=O)NC(=O)[C@H](CCCNC(=N)N)NC(=O)[C@H](CCC(=O)O)NC(=O)[C@H](Cc1c[nH]cn1)NC(=O)[C@H](CCCNC(=N)N)NC(=O)[C@@H](NC(=O)[C@H](C)NC(=O)[C@@H](N)Cc1ccc(O)cc1)[C@@H](C)O)[C@@H](C)O)C(=O)N[C@@H](CC(N)=O)C(=O)N[C@@H](Cc1ccccc1)C(=O)N[C@@H](CS)C(=O)N[C@@H](CCCCN)C(=O)O; target or system = Mapk1; assay = enzyme activity, inhibitor, fluorescence; conditions = pH 7.4; quantity = IC50; value = > 200000 nM
SMILES = O=C(c1cc(Cc2n[nH]c(=O)c3ccccc23)ccc1F)N1CC(CNC2CC2)C1; target or system = Protein mono-ADP-ribosyltransferase PARP10 (PARP10, Homo sapiens, UniProt Q53GL7); assay = enzyme activity, inhibitor; quantity = IC50; value = > 10000 nM
